Experimental data collected from several papers.
Each numbered part is a random draw from the data of one study; scales do not carry over between parts.

Block 1
Target: Sal-like protein 4, full length isoform B (SALL4, Homo sapiens, UniProt Q9UJQ4-2, residues 1-616)
Technique: universal PBM
Form: double-stranded DNA, one strand shown
Matrix: in vitro
Tested at: not given
Setting: 8-mer, flanks averaged, mean of replicates
Reading: higher = stronger binding
| Strand | E-score |
| --- | --- |
| AGCGTACC | -0.207 |
| TAGGAATA | 0.229 |
| CTGCGAAC | -0.09 |
| CTTTTTTC | 0.108 |
| ATTTTCTG | 0.154 |
| TGGGCGAA | -0.064 |

Block 2
Target: RING finger protein unkempt homolog, zinc fingers 1-6, GST-SBP tag (UNK, Homo sapiens, UniProt Q9C0B0, residues 30-357)
Chain of UniProt Q9C0B0 (30-357, looked up): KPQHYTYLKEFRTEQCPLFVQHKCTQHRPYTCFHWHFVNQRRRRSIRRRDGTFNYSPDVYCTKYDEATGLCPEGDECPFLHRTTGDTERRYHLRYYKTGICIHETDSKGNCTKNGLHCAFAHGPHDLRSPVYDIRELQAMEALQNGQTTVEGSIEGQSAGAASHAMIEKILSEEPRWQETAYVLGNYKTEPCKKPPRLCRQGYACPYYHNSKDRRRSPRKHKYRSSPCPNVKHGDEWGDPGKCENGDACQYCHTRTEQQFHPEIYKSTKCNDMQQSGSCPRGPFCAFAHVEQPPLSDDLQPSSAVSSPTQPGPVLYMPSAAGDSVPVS
Technique: RNA Bind-n-Seq
Form: RNA
Matrix: in vitro
Tested at: not given
Setting: RNA with constant flanks, human-mouse chimeric sites, ends assumed
Baseline: input RNA pool
Reading: higher = stronger binding
| Strand | bound/input enrichment |
| --- | --- |
| GGGAGUUCUACAGUCCGACGAUCCUCGGCACUGGUACCCUUUACAUCGCGGAGAGCCGCCUGUCCUGGUUAGAUGGUUCGGGAUUAGGAUUCUCACUGGAAUACCCCACCAUUAGUUUACAUGCGGUGUCCAGGGAUCCAAACCAACAGAGGAUUGAGCAUCA | 0.559 ratio |
| GGGAGUUCUACAGUCCGACGAUCUAACCACAUCAAGAUGGUUGGGAAGCUGAAGCAGAACUUACUAUUGGCGUGUCUGGUGAUUAGUUCUGUGACUGUGUUUUACCUGGGCCAGCAUGCCAUGGAGUGCCAUCACCGAAUAGACAACAGAGGAUUGAGCAUCA | 0.253 ratio |
| GGGAGUUCUACAGUCCGACGAUCAGAUUCCCCCUCCUGAGACCUCCUCCGAAAUUGGCAUCUCUUACAGAUGCCUCAUCCCCUGUUAGCGUUUUAGUUUGGACCACCCAGCCUUGGACAAUUCCAGCCAACCAGGCAAUUUGCCAACAGAGGAUUGAGCAUCA | 1.05 ratio |
| GGGAGUUCUACAGUCCGACGAUCUCGGAUGCUGUGCUGGGUCACUUUUCAUAUCCAGAUCCUUCACAGUGGACAGAUGAAGAACUGGGAAUCCCUCCUGAUGAUGAAGACUGAAGGUGUAAACUCUCUGGACGAGUAGGAGCACAACAGAGGAUUGAGCAUCA | 0.343 ratio |

Block 3
Target: Protein C-ets-1 (ETS1, Homo sapiens, UniProt P14921, residues 1-441, K379A, full length assumed)
Technique: protein-binding microarray
Form: double-stranded DNA, one strand shown
Matrix: in vitro
Tested at: not given
Setting: k-mer, scored over probes, only values ≥0.25
Reading: higher = stronger binding
Residues (chain): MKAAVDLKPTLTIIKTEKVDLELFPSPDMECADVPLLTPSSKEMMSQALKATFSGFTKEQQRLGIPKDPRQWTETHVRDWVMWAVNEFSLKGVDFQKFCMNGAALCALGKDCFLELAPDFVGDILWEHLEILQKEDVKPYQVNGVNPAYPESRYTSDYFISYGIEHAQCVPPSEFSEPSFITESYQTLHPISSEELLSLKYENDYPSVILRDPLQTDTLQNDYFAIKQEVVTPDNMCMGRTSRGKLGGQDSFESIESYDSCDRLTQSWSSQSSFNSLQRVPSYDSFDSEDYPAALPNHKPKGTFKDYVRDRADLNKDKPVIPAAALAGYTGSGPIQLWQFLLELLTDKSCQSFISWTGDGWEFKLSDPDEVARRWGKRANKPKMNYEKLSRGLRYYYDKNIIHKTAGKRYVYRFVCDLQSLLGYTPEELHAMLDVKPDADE
| Strand | E-score |
| --- | --- |
| TATACACA | 0.271 |
| AACAATAC | 0.259 |
| CGACACCG | 0.309 |
| TCCCGGCA | 0.274 |
| ATATACAT | 0.333 |
| GGCCGGAA | 0.364 |
| CGTCGGCC | 0.306 |

Other studies, line by line
| Molecule | target | assay | system | conditions | how to read | quantity | result |
| --- | --- | --- | --- | --- | --- | --- | --- |
| PhoQ, residues 284 288 289 292 302 303 SSYNSA | PhoP, residues 12 14 15 18 19 GQAIL (Escherichia coli, UniProt P23836) | Sort-seq, item: YFP reporter | E. coli | PhoQ-PhoP variant library, together with: 10 µM Mg2+ | baseline: high Mg2+ state, higher = stronger signaling | fold induction | 9.01 |

Repeated from above (block 2):
| Strand | bound/input enrichment |
| --- | --- |
| GGGAGUUCUACAGUCCGACGAUCCUCGGCACUGGUACCCUUUACAUCGCGGAGAGCCGCCUGUCCUGGUUAGAUGGUUCGGGAUUAGGAUUCUCACUGGAAUACCCCACCAUUAGUUUACAUGCGGUGUCCAGGGAUCCAAACCAACAGAGGAUUGAGCAUCA | 0.559 ratio |
| GGGAGUUCUACAGUCCGACGAUCUAACCACAUCAAGAUGGUUGGGAAGCUGAAGCAGAACUUACUAUUGGCGUGUCUGGUGAUUAGUUCUGUGACUGUGUUUUACCUGGGCCAGCAUGCCAUGGAGUGCCAUCACCGAAUAGACAACAGAGGAUUGAGCAUCA | 0.253 ratio |
| GGGAGUUCUACAGUCCGACGAUCAGAUUCCCCCUCCUGAGACCUCCUCCGAAAUUGGCAUCUCUUACAGAUGCCUCAUCCCCUGUUAGCGUUUUAGUUUGGACCACCCAGCCUUGGACAAUUCCAGCCAACCAGGCAAUUUGCCAACAGAGGAUUGAGCAUCA | 1.05 ratio |
